# Experimental data gathered from unrelated publications.
# Each line is one published result; not all experiments were run side by side. Values joined by “and” are separate records of one study, mostly repeats; a detail may differ. ± marks the error that the study gave.
# UniProt P27361, sequence (whole entry, looked up): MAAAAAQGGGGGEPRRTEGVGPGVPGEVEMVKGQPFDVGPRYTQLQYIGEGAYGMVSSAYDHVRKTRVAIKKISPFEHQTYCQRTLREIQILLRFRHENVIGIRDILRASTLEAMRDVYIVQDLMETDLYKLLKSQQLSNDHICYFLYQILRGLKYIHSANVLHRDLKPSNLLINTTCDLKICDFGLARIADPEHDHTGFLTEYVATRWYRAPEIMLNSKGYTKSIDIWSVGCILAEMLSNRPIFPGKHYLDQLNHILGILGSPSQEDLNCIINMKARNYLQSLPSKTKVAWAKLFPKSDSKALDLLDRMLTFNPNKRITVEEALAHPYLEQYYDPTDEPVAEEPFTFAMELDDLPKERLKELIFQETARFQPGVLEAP
# UniProt Q62351, sequence (whole entry, looked up): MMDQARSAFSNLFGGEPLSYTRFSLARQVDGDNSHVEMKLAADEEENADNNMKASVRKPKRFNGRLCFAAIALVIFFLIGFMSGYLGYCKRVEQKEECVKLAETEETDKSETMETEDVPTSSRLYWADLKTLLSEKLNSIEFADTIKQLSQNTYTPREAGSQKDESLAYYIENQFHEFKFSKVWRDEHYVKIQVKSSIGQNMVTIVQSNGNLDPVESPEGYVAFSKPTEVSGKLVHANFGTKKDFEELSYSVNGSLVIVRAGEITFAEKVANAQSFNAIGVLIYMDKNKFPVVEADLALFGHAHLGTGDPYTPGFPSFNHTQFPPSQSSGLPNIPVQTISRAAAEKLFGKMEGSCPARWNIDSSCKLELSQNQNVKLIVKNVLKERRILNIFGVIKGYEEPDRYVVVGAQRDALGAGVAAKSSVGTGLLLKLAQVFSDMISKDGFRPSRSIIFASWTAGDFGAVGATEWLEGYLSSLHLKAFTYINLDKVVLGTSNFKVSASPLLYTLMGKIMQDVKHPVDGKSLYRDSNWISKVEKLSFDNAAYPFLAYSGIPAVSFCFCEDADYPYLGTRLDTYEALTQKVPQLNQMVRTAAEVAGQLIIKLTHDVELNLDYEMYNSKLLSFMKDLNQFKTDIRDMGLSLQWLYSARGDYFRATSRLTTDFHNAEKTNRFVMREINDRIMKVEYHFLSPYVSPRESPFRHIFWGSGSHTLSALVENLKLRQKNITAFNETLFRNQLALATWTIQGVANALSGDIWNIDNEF
# UniProt D0VWV4, sequence (whole entry, looked up): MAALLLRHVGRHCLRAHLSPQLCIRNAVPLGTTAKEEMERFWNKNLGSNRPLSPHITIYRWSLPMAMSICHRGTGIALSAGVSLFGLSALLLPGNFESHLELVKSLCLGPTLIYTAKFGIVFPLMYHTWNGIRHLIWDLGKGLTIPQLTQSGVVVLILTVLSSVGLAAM
# UniProt Q007T0, sequence (whole entry, looked up): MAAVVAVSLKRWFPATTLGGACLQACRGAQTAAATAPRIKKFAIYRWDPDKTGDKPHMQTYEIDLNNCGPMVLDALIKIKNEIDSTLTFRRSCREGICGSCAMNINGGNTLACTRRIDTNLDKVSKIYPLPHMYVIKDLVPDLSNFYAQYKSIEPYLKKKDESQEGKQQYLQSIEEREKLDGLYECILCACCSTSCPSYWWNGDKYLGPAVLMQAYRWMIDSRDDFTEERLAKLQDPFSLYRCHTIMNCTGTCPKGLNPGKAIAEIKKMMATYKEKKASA
# UniProt A5GZW8, sequence (whole entry, looked up): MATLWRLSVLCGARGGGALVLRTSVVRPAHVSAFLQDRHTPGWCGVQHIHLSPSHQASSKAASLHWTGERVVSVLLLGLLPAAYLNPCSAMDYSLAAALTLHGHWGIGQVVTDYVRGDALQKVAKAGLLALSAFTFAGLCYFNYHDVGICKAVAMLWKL
# UniProt Q13224, sequence (whole entry, unmodified, looked up): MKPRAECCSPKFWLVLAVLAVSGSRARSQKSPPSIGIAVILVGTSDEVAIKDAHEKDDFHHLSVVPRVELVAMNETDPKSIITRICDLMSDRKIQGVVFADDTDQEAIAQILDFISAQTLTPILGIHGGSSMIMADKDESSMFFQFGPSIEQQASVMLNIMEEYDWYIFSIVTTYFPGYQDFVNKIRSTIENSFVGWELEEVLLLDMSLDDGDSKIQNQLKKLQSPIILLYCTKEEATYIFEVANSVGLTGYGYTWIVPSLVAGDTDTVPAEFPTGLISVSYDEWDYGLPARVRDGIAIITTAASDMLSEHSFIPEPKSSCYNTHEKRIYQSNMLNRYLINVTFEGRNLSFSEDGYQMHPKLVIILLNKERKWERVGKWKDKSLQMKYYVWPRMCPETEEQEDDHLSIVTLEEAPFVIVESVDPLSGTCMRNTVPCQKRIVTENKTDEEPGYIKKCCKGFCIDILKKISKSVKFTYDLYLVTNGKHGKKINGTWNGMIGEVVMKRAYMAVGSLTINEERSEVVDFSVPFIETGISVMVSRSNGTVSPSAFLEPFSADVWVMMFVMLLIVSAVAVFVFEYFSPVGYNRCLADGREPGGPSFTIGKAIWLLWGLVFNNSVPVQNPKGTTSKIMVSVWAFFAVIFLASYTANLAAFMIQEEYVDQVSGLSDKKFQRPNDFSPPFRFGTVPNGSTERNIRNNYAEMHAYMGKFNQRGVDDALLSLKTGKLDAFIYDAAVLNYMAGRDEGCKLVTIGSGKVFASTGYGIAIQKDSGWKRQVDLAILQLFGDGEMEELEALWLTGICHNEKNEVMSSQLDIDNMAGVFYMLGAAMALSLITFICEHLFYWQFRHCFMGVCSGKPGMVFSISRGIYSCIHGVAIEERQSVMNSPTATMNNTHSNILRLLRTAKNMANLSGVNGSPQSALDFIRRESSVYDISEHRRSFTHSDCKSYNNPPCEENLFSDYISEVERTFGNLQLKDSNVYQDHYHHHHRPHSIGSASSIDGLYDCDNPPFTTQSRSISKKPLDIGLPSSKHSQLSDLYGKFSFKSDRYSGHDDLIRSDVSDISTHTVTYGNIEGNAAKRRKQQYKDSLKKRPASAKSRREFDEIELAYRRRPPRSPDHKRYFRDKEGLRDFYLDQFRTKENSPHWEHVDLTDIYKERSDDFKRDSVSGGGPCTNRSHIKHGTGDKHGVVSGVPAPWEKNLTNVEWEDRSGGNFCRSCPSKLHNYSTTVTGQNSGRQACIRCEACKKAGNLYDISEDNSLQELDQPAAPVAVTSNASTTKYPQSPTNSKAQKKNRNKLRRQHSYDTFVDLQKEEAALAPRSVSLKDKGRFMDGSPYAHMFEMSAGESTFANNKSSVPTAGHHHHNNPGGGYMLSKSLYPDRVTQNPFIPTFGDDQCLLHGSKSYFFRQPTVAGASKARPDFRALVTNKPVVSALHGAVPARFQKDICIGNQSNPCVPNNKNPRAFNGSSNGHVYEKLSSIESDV
# UniProt P43144, sequence (whole entry, looked up): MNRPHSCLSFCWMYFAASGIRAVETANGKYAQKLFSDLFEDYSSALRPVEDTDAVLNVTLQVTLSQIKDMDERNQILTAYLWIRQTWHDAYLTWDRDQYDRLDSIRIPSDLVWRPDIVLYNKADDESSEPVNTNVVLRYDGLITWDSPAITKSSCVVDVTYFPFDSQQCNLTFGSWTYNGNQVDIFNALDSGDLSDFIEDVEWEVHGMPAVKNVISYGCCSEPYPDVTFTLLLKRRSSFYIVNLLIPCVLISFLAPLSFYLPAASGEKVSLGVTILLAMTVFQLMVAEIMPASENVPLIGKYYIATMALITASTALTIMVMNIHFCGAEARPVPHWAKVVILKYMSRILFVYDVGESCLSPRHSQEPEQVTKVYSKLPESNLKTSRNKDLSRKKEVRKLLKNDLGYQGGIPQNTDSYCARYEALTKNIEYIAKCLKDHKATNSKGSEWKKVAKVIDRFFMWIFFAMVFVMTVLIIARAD
# UniProt P14867, sequence (whole entry, looked up): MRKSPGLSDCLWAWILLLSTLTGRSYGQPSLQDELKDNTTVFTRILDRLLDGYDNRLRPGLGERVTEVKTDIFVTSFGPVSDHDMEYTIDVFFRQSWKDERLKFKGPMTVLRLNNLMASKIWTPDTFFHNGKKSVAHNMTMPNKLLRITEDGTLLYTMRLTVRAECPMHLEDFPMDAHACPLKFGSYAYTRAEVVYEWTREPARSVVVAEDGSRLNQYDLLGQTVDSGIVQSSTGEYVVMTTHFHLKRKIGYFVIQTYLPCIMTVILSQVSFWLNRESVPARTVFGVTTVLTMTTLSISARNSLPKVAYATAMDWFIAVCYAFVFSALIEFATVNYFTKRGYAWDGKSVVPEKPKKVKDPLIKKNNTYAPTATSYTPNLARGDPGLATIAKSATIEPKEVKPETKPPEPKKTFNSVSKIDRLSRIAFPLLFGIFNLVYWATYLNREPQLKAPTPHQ
# UniProt P07026, sequence (whole entry, looked up): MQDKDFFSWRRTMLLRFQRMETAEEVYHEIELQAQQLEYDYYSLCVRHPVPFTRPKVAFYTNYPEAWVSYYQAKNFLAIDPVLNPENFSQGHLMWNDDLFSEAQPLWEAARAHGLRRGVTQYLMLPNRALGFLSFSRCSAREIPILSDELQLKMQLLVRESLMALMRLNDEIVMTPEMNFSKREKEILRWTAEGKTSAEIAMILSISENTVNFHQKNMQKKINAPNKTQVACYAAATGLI
# UniProt Q9Y3R4, sequence (whole entry, looked up): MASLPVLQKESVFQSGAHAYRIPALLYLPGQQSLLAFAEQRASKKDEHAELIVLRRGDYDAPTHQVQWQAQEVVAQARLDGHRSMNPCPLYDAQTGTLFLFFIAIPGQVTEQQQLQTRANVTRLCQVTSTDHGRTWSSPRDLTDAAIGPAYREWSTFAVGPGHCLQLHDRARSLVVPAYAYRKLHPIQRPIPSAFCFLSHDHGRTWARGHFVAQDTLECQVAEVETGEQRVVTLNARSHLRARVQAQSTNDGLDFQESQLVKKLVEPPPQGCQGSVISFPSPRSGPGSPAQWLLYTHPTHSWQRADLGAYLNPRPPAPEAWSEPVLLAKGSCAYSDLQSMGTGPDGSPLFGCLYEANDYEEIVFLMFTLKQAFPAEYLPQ
# UniProt P07148, sequence (whole entry, looked up): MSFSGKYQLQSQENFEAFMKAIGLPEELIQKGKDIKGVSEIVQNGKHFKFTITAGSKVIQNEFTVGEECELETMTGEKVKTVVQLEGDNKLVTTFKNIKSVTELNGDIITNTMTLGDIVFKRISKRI
SMILES,tested on,test,test system,conditions,how to read,endpoint,result
CC1(C)C=C(CNc2ccc3c(c2)Cc2cc(Br)ccc2-3)C(C)(C)N1[O],"Amyloid-beta precursor protein, amyloid-beta (APP, Homo sapiens, UniProt P05067)","MRI, MSME","5xFAD mice, brain","iv, 3 mg/kg, 24 h",,T2 relaxation time,28 ms
NC(CC1(C(=O)O)CC2OC(CO)C(O)C(O)C2O1)C(=O)O (stereo not drawn),"Glutamate receptor ionotropic, kainate 1 (Rattus norvegicus, UniProt P22756, del402-416)","glutamate-evoked current, patch clamp",,"concentration not given, 30 s application",,recovered plateau current amplitude,70%
COC(=O)[C@@]1(O)C[C@H]2O[C@]1(C)n1c3ccccc3c3c4c(c5c6ccccc6n2c5c31)C(=O)NC4,"Mitogen-activated protein kinase 3 (MAPK3, Homo sapiens, UniProt P27361)",ADP-Glo,,"12.1 µM, with: MBP substrate",,kinase activity,109% and 104% and 96.5%
C[C@H]1CN(c2n[nH]c3nc(N[C@H]4CC[C@H](NS(=O)(=O)CCC(F)(F)F)CC4)ncc23)CCO1,"Cyclin-dependent kinase 9 (CDK9, Homo sapiens, UniProt P50750)",Kinobeads competition,"HEK293, K562, placenta lysate","0.16 µM, unit not given",baseline: vehicle,remaining binding,0.98
COc1cc(N)c(Cl)cc1C(=O)NC1CN2CCC1CC2 (stereo not drawn),"G-protein coupled receptor 55 (GPR55, Homo sapiens, UniProt Q9Y2T6)","β-arrestin recruitment, TANGO luminescence",,concentration not given,baseline: basal luminescence,log2 fold change,0.167
CN[C@@H]1C[C@H]2O[C@@](C)([C@@H]1OC)n1c3ccccc3c3c4c(c5c6ccccc6n2c5c31)C(=O)NC4,"Mitogen-activated protein kinase 14 (MAPK14, Homo sapiens, UniProt Q16539)","kinase activity, Kinase-Glo",,concentration not given,,normalized luminescence,-0.0242
CN(C(=O)n1cnc(-c2ccc[n+]([O-])c2)c1)C1CCCCC1,"Gastrin-releasing peptide receptor (GRPR, Homo sapiens, UniProt P30550)",radioligand binding,,10 µM,,inhibition,-3%
CCCCCCCCCC(=O)CC(=O)Nc1ccccc1,"Regulatory protein SdiA (sdiA, Escherichia coli, UniProt P07026)",,,,,Emax,93%
NCc1cc(=O)[nH]o1,"GABA-A receptor; GABA-A site (alpha1/beta2 interface), with gamma-2 subunit (Homo sapiens, UniProt P14867+P47870)","ion current, whole-cell patch clamp","HEK293, stably transfected",,,EC30,2.7 µM
CC(C)[C@@H](O)CC[C@@H](C)[C@H]1CC[C@H]2[C@@H]3CC=C4C[C@@H](O)CC[C@]4(C)[C@H]3CC[C@]12C,"Glutamate NMDA receptor; GRIN1/GRIN2B (GRIN1/GRIN2B, Homo sapiens, UniProt Q05586+Q13224, A549C)","positive allosteric modulator, two-electrode voltage clamp",Xenopus oocytes expressing GluN2B-A549C,"10 µM, 0.02% cremophor, with: 100 µM glutamate and glycine",baseline: without compound,current response,161 ± 8.7%
CCCCC/C=C\C/C=C\C/C=C\C/C=C\CCCC(=O)NCCO,"Transient receptor potential cation channel subfamily V member 1 (Trpv1, Mus musculus, UniProt Q704Y3, S513A)","ion current, agonist, whole-cell patch clamp",,,baseline: 3 mM 2-APB current,maximal open probability,0.98 ± 0.22
CN(CC(=O)O)C(=N)NP(=O)(O)O,"Creatine kinase U-type, mitochondrial (CKMT1A, Homo sapiens, UniProt P12532, H99K)","substrate, Kinase-Glo luminescence",,"pH 7.0, reverse reaction, H61K mutant, with: second substrate in excess",,kcat,5 ± 1 s⁻¹
O=c1c2ccccc2oc2cc(OCCCCc3ccccc3)ccc12,"Acetylcholinesterase (ache, Electrophorus electricus, UniProt O42275)",enzyme activity,,"2.91 µM, with: substrate 6.90 mM",higher = faster reaction,reaction velocity,0.003 a.u.
O=C(NNC(=O)c1csnn1)c1ccc(Cl)cc1,"Acetyl-CoA synthetase (Cryptococcus neoformans, UniProt J9VFT1)",,,195 nM,,remaining activity,96%
O=C(CF)N[C@H]1[C@H]([C@H](O)[C@H](O)CO)O[C@@](OC[C@H]2O[C@@H](Oc3ccc([N+](=O)[O-])cc3)[C@H](O)[C@@H](O)[C@H]2O)(C(=O)O)C[C@@H]1O,"Sialidase-2 (Homo sapiens, UniProt Q9Y3R4)",substrate,,"0.3 mM, 30 min, pH 5.0, 37 °C",,sialic acid release,18%
Nc1nc2c(ncn2[C@@H]2O[C@@H]3COP(=O)(O)O[C@H]4[C@@H](O)[C@H](n5cnc6c(=O)[nH]c(N)nc65)O[C@@H]4COP(=O)(O)O[C@H]3[C@H]2O)c(=O)[nH]1,"Cell cycle histidine kinase CckA, R374A; cytoplasmic region (Caulobacter vibrioides, UniProt Q9X688, R374A)","binding, ITC",,with: ADP 5 mM,,association constant,39800 ± 7200 M⁻¹
COc1ccc2c3c([nH]c2c1)CCN(C)CC3.O=C(O)/C=C/C(=O)O,"Nicotinic acetylcholine receptor alpha9/alpha10 (Rattus norvegicus, UniProt P43144+Q9JLB5)","ion current, inhibitor, two-electrode voltage clamp","Xenopus laevis oocytes, rat",with: 100 µM acetylcholine,,Hill coefficient,2 ± 0.2
CC(C)(C)[C@]1(O)CC2OC(=O)CC23C(=O)OC2OC(=O)[C@H](O)C231 (stereo partly drawn),"Rdl (Drosophila melanogaster, UniProt P25123)","ion current, inhibitor, two-electrode voltage clamp",,"IC50, with: GABA at EC50",,time constant of onset,3.7 ± 0.4 s
COc1ccc(N2C(=O)N(c3c(C)cccc3Cl)Cc3cnc(Nc4ccc(C5CCN(C)CC5)cc4OC)nc32)nc1,"Protein kinase C zeta type (PRKCZ, Homo sapiens, UniProt Q05513)","kinase activity, inhibitor",,"0.5 µM, kinase PKC-ZETA",,inhibition,1.27%
COc1cc(F)cc2c(N3CCN(c4ccccc4OC4CC4)CC3)c(C#N)nnc12,"Metabotropic glutamate receptor 8 (GRM8, Homo sapiens, UniProt O00222)",positive allosteric modulator,,"concentration not given, with: glutamate",,activity,inactive
O=C(O)Cc1c[nH]cn1,"Sodium- and chloride-dependent taurine transporter (SLC6A6, Homo sapiens, UniProt P31641, Y138A)","binding, microscale thermophoresis",,"500 µM, room temperature, with: 50 nM labelled protein",higher = more binding,normalised MST signal,0.758
C/C(=C/C(=O)C[C@H](C)C(=O)O)[C@@H]1CC(=O)[C@@]2(C)C3=C(C(=O)C[C@]12C)[C@@]1(C)CCC(=O)C(C)(C)[C@@H]1C[C@@H]3O,"Calcium-activated potassium channel subunit beta-1, with BK alpha subunit (Kcnmb1, Rattus norvegicus, UniProt P97678)",BK channel current,CHO with alpha and beta1,,,Hill coefficient,0.8 ± 0.04
CN1C(=O)CC[C@H](N2Cc3c(ccc4c3OCC43CCN(C[C@@H]4CCC5(CCN(c6ccc([C@@H]7c8ccc(O)cc8CC[C@@H]7c7ccccc7)cc6)CC5)OC4)CC3)C2=O)C1=O,"Estrogen receptor (ESR1, Homo sapiens, UniProt P03372)","degrader, Western blot",MCF7 (ER wild-type),"10 and 100 nM, 7 h",,ER protein level,no effect
CSCC[C@H](N)C(=O)N[C@@H](C)C(=O)N[C@@H](C)C(=O)N[C@H](C(=O)N[C@@H](C)C(=O)NCC(=O)N[C@@H](CC(C)C)C(=O)N[C@@H](Cc1ccc(O)cc1)C(=O)NCC(=O)N[C@@H](CC(C)C)C(=O)NCC(=O)N[C@@H](CCC(=O)O)C(=O)N[C@@H](CC(=O)O)C(=O)N[C@@H](CCCNC(=N)N)C(=O)N[C@@H](CCC(N)=O)C(=O)N[C@@H](Cc1c[nH]cn1)C(=O)N[C@@H](CCCNC(=N)N)C(=O)N[C@@H](CCCCN)C(=O)N[C@@H](CCCCN)C(=O)N[C@@H](CCC(N)=O)C(N)=O)C(C)C,"Sh, DEL6-46 (Drosophila melanogaster, UniProt P08510)","ion current, blocker, inside-out patch clamp",,+70 mV,,Hill coefficient,0.87
O=C(O)COP(=O)(O)O,"Triosephosphate isomerase (TPI1, Gallus gallus, UniProt P00940, G210A/S211G/Y208T)","enzyme activity, competitive inhibitor, GPDH/NADH-coupled",,"pH 6.4, 25 °C, ionic strength 0.1 NaCl, with: glyceraldehyde 3-phosphate substrate",baseline: mutant over wild type,Ki ratio,830
NCCc1c[nH]c2ccc(O)cc12,AANAT2 pig,"substrate, DTNB colorimetric",,with: acetyl-CoA,,Km,240 ± 50 µM
OCC(F)(F)F,"ADH1 (Saccharomyces cerevisiae, UniProt P00330, H49Q)",binding,,pH 7.3,baseline: wild type,Kd increase,13 fold
O=C(c1ccc(Cl)cc1)N1CCN2C(=O)N(OC(=O)N3CCOc4ccccc43)C(=O)C2C1 (stereo not drawn),"Actin, cytoplasmic 1 (ACTB, Homo sapiens, UniProt P60709)",MS-based ABPP,SW-620 conditioned medium,10 µM,"baseline: compound over DMSO, lower = more inhibition",median protein ratio,1
CC[C@@H](C)[C@@H](NC(=O)[C@@H](Cc1ccc(O)cc1)NC(=O)[C@H]1CCCN1C(=O)[C@@H](CCCNC(=N)N)NC(=O)[C@H](N)Cc1c[nH]cn1)C(=O)N[C@H](C)C(=O)N[C@H](Cc1c[nH]cn1)C(=O)N[C@H](CCCNC(=N)N)C(=O)N[C@H](CCCCNC(=O)c1cccc(S(=O)(=O)F)c1)C(=O)N[C@H](Cc1ccc(O)cc1)C(=O)N[C@H](CO)C(=O)N[C@H](Cc1ccccc1)C(N)=O,"Transferrin receptor protein 1 (Tfrc, Mus musculus, UniProt Q62351)",flow cytometry,MC-38,"24 h, unit not given",baseline: 0 h,surface expression,0.912 and 0.914
C=C(CN(C(=O)c1c(C(F)F)nn(C)c1F)C1CC1)c1ccc(Cl)cc1Cl,"SDHD/SDHC/SDHB (Sus scrofa, UniProt A5GZW8+D0VWV4+Q007T0)","enzyme activity, inhibitor, DCIP reduction",pig,"0.06 µM, with: DCIP 10 µM",,reaction velocity,0.00541 µM/s and 0.00469 µM/s
[2H]c1c([2H])c([C@]2([2H])CCCN2C(=O)C(C)(C)Oc2ccc3cn[nH]c3c2)c([2H])c([2H])c1C([2H])([2H])[2H],"Activin receptor type-2A (ACVR2A, Homo sapiens, UniProt P27037)",KINOMEscan,,1 µM,baseline: DMSO control,remaining binding,86%
OCCn1cc(-c2ccc3c(c2)CC/C3=N\O)c(-c2ccncc2)n1,human coronavirus OC43,virus-induced cell killing,MRC-5,maximum over 10 doses,,maximum inhibition,0%
CC(C)(C)c1csc(-c2cc3cc(OCc4ccccc4CC(=O)O)ccc3o2)n1,"Fatty acid-binding protein, liver (FABP1, Homo sapiens, UniProt P07148)",affinity selection mass spectrometry,,"100 nM, with: pooled compounds",baseline: other proteins,binding fold change,10.6
C[C@H]1COCCN1c1nc(NCc2cccnc2C(F)(F)F)c2cccnc2n1,"3',5'-cyclic-AMP phosphodiesterase 4D (PDE4D, Homo sapiens, UniProt Q08499)",binding,,CEREP panel,,IC50,14.6 µM
OB(O)c1csc2ccccc12,"Uncharacterized hydrolase SAUSA300_2518 (Staphylococcus aureus, UniProt Q2FDS6)","FP-Cy5 probe labeling, inhibitor, competitive activity-based labeling",,,,IC50,> 50 µM
Nc1ncc(-c2nc(N3CCOCC3)nc(N3CCOCC3)n2)c(C(F)F)n1,"Serine/threonine-protein kinase MRCK gamma (CDC42BPG, Homo sapiens, UniProt Q6DT37)",KINOMEscan,,10 µM,baseline: control,remaining binding,77%
CN1CCN(c2cc(-c3ccncc3)c(-c3ccc4ccccc4c3)nn2)CC1,"G-protein coupled receptor 68 (GPR68, Homo sapiens, UniProt Q15743)","agonist, FLIPR",,12.5 µM,,activation,9.8%
N=C(N)NCCC[C@@H](N)C(=O)O,Alkaliphilus oremlandii ArgR,substrate,,,,Km,385 ± 26 µM
CC[C@H](CO)Nc1nc(NCc2ccccc2)c2ncn(C(C)C)c2n1,"Dual specificity tyrosine-phosphorylation-regulated kinase 1B (DYRK1B, Homo sapiens, UniProt Q9Y463)",KINOMEscan competition binding,,"10 µM, primary screen",direction not given,binding score,7.1

# Excerpt of the above:
SMILES,tested on,test,test system,conditions,how to read,endpoint,result
C/C(=C/C(=O)C[C@H](C)C(=O)O)[C@@H]1CC(=O)[C@@]2(C)C3=C(C(=O)C[C@]12C)[C@@]1(C)CCC(=O)C(C)(C)[C@@H]1C[C@@H]3O,"Calcium-activated potassium channel subunit beta-1, with BK alpha subunit (Kcnmb1, Rattus norvegicus, UniProt P97678)",BK channel current,CHO with alpha and beta1,,,Hill coefficient,0.8 ± 0.04
CN1C(=O)CC[C@H](N2Cc3c(ccc4c3OCC43CCN(C[C@@H]4CCC5(CCN(c6ccc([C@@H]7c8ccc(O)cc8CC[C@@H]7c7ccccc7)cc6)CC5)OC4)CC3)C2=O)C1=O,"Estrogen receptor (ESR1, Homo sapiens, UniProt P03372)","degrader, Western blot",MCF7 (ER wild-type),"10 and 100 nM, 7 h",,ER protein level,no effect
CSCC[C@H](N)C(=O)N[C@@H](C)C(=O)N[C@@H](C)C(=O)N[C@H](C(=O)N[C@@H](C)C(=O)NCC(=O)N[C@@H](CC(C)C)C(=O)N[C@@H](Cc1ccc(O)cc1)C(=O)NCC(=O)N[C@@H](CC(C)C)C(=O)NCC(=O)N[C@@H](CCC(=O)O)C(=O)N[C@@H](CC(=O)O)C(=O)N[C@@H](CCCNC(=N)N)C(=O)N[C@@H](CCC(N)=O)C(=O)N[C@@H](Cc1c[nH]cn1)C(=O)N[C@@H](CCCNC(=N)N)C(=O)N[C@@H](CCCCN)C(=O)N[C@@H](CCCCN)C(=O)N[C@@H](CCC(N)=O)C(N)=O)C(C)C,"Sh, DEL6-46 (Drosophila melanogaster, UniProt P08510)","ion current, blocker, inside-out patch clamp",,+70 mV,,Hill coefficient,0.87
O=C(O)COP(=O)(O)O,"Triosephosphate isomerase (TPI1, Gallus gallus, UniProt P00940, G210A/S211G/Y208T)","enzyme activity, competitive inhibitor, GPDH/NADH-coupled",,"pH 6.4, 25 °C, ionic strength 0.1 NaCl, with: glyceraldehyde 3-phosphate substrate",baseline: mutant over wild type,Ki ratio,830
NCCc1c[nH]c2ccc(O)cc12,AANAT2 pig,"substrate, DTNB colorimetric",,with: acetyl-CoA,,Km,240 ± 50 µM
